Measured values collected from several papers.
Each line is one published result; not all experiments were run side by side. ± marks the error that the study gave.

Structure (SMILES) | host | matrix | route | dose | time | tissue uptake
CCCC[C@H](NC(=O)CCCCCCCNC(=O)CN1CCN(CC(=O)O)CCN(CC(=O)O)CC1)C(=O)N[C@H]1CC(=O)NCCCC[C@@H](C(N)=O)NC(=O)[C@H](Cc2c[nH]c3ccccc23)NC(=O)[C@H](CCCNC(=N)N)NC(=O)[C@@H](Cc2ccccc2)NC(=O)[C@H](Cc2c[nH]cn2)NC1=O [fluorine-18 labelled] | C57 mice B16-F10 melanoma | skin | intravenous | 0.37 MBq | 0.5 h | 2.67 ± 0.28 %ID/g
Cc1cc(C)n(CCN(CCN)CCCCCCNC(=O)[C@@H](N)Cc2c[nH]c3ccccc23)n1.[99Tc+].[C-]#[O+].[C-]#[O+].[C-]#[O+] | BALB/c nude mice A549 xenograft | blood | intravenous |  | 15 min | 1.8 ± 0.69 %ID/g
O=C(O)CCCOc1ccc([18F])cc1-c1cc(-c2ccccc2C(F)(F)F)n(-c2ccccc2)n1 | mice | small intestine | intravenous |  | 360 min | 2.75 ± 0.45 %ID/g
CCCC[C@H](NC(=O)CNC(=O)CNC(=O)[C@H](CCCCNC(=O)[C@H](CC(=O)O)NC(=O)C(C)c1ccc(CC(C)C)cc1)NC(=O)CN1CCN(CC(=O)O)CCN(CC(=O)O)CCN(CC(=O)O)CC1)C(=O)N[C@H]1CC(=O)NCCCC[C@@H](C(N)=O)NC(=O)[C@H](Cc2c[nH]c3ccccc23)NC(=O)[C@H](CCCNC(=N)N)NC(=O)[C@@H](Cc2ccccc2)NC(=O)[C@H](Cc2c[nH]cn2)NC1=O (stereo partly shown) [lutetium-177 labelled] | C57 mice, tumour-bearing | brain | intravenous | 0.037 MBq | 0.5 h | 0.32 ± 0.06 %ID/g
COc1ccc(Nc2nc(Nc3ccc(OCCOCC[18F])cc3)ncc2Br)cc1 | ICR mice, S180 tumour-bearing | muscle | intravenous | 370 kBq | 60 min | 2.37 ± 0.14 %ID/g
Cc1cc(C)n(CCN(CCN)CCCCCCNC(=O)[C@@H](N)Cc2c[nH]cn2)n1.[99Tc+].[C-]#[O+].[C-]#[O+].[C-]#[O+] | BALB/c nude mice, A549 xenograft | bone | intravenous |  | 4 h | 0.17 ± 0.01 %IA/g
O=C(NCC1OC2CCC=CCCC2O1)c1ccc([18F])nc1 (stereo not shown) | healthy female BALB/c nude mice | muscle | intravenous | 7.4 MBq per mouse | 60 min | 1.1 ± 0.36 %ID/g
CCCC[C@H](NC(=O)CNC(=O)CNC(=O)[C@H](CCCCNC(=O)C(C)c1ccc(CC(C)C)cc1)NC(=O)CN1CCN(CC(=O)O)CCN(CC(=O)O)CCN(CC(=O)O)CC1)C(=O)N[C@H]1CC(=O)NCCCC[C@@H](C(N)=O)NC(=O)[C@H](Cc2c[nH]c3ccccc23)NC(=O)[C@H](CCCNC(=N)N)NC(=O)[C@@H](Cc2ccccc2)NC(=O)[C@H](Cc2c[nH]cn2)NC1=O (stereo partly shown) [lutetium-177 labelled] | C57 mice, tumour-bearing | brain |  |  | 2 h | 0.07 ± 0.01 %ID/g
CCCC[C@H](NC(=O)COCCOCCNC(=O)CN1CCN(CC(=O)O)CCN(CC(=O)O)CC1)C(=O)N[C@H]1CC(=O)NCCCC[C@@H](C(N)=O)NC(=O)[C@H](Cc2c[nH]c3ccccc23)NC(=O)[C@H](CCCNC(=N)N)NC(=O)[C@@H](Cc2ccccc2)NC(=O)[C@H](Cc2c[nH]cn2)NC1=O [fluorine-18 labelled] | C57 mice B16-F10 melanoma | lung | intravenous | 0.37 MBq | 2 h | 0.28 ± 0.1 %ID/g
COc1ccc(Nc2nc(Nc3ccc(OCCOCCOCC[18F])cc3)ncc2Br)cc1 | ICR mice, S180 tumour-bearing | kidney | intravenous | 370 kBq | 30 min | 4.39 ± 0.07 %ID/g

For quick reference, copied from above:
Structure (SMILES) | host | matrix | route | dose | time | tissue uptake
CCCC[C@H](NC(=O)CNC(=O)CNC(=O)[C@H](CCCCNC(=O)[C@H](CC(=O)O)NC(=O)C(C)c1ccc(CC(C)C)cc1)NC(=O)CN1CCN(CC(=O)O)CCN(CC(=O)O)CCN(CC(=O)O)CC1)C(=O)N[C@H]1CC(=O)NCCCC[C@@H](C(N)=O)NC(=O)[C@H](Cc2c[nH]c3ccccc23)NC(=O)[C@H](CCCNC(=N)N)NC(=O)[C@@H](Cc2ccccc2)NC(=O)[C@H](Cc2c[nH]cn2)NC1=O (stereo partly shown) [lutetium-177 labelled] | C57 mice, tumour-bearing | brain | intravenous | 0.037 MBq | 0.5 h | 0.32 ± 0.06 %ID/g
O=C(O)CCCOc1ccc([18F])cc1-c1cc(-c2ccccc2C(F)(F)F)n(-c2ccccc2)n1 | mice | small intestine | intravenous |  | 360 min | 2.75 ± 0.45 %ID/g
